Results pooled from the literature.
Protocols differ between the studies behind these lines. ± marks the error that the study gave.
CYP3A4: Cytochrome P450 3A4 (CYP3A4, Homo sapiens, UniProt P08684)
Chain of UniProt P08684 (whole entry, looked up): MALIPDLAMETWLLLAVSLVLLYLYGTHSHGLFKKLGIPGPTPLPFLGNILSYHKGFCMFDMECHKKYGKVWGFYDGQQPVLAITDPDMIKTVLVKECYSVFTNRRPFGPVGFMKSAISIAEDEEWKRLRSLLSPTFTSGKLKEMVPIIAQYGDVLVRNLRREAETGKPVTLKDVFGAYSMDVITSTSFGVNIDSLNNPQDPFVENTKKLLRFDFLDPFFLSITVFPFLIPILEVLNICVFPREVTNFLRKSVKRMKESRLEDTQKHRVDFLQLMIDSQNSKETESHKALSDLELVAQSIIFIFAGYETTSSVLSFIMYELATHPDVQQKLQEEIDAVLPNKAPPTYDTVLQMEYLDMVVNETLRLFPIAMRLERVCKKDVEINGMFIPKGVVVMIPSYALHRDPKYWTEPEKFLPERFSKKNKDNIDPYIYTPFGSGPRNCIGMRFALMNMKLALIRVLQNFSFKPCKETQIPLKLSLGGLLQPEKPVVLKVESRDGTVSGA
Chain of UniProt P08683 (whole entry, looked up): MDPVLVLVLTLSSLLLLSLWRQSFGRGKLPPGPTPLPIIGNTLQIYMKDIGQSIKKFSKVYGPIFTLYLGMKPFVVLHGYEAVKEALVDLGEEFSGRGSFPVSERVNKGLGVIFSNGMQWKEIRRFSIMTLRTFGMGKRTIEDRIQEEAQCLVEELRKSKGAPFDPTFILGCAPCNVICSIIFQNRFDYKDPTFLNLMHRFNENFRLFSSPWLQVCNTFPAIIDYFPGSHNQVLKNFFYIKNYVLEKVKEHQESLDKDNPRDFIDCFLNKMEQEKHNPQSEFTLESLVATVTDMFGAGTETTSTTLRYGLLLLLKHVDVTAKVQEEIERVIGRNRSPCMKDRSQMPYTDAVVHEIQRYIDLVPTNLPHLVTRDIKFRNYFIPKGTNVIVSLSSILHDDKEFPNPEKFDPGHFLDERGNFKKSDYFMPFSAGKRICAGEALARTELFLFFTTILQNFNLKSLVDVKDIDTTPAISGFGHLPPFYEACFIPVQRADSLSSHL
Chain of UniProt O75469 (whole entry, looked up): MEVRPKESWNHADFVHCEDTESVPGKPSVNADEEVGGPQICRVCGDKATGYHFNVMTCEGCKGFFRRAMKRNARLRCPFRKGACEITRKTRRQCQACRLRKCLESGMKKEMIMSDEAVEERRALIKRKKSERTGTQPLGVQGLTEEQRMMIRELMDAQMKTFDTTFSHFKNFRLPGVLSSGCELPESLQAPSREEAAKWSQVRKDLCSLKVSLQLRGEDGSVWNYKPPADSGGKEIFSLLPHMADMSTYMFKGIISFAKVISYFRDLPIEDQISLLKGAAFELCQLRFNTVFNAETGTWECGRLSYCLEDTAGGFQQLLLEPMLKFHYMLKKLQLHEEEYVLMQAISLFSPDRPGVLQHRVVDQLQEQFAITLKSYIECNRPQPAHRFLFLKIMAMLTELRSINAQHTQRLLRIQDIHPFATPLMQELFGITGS
Chain of UniProt Q08499 (whole entry, looked up): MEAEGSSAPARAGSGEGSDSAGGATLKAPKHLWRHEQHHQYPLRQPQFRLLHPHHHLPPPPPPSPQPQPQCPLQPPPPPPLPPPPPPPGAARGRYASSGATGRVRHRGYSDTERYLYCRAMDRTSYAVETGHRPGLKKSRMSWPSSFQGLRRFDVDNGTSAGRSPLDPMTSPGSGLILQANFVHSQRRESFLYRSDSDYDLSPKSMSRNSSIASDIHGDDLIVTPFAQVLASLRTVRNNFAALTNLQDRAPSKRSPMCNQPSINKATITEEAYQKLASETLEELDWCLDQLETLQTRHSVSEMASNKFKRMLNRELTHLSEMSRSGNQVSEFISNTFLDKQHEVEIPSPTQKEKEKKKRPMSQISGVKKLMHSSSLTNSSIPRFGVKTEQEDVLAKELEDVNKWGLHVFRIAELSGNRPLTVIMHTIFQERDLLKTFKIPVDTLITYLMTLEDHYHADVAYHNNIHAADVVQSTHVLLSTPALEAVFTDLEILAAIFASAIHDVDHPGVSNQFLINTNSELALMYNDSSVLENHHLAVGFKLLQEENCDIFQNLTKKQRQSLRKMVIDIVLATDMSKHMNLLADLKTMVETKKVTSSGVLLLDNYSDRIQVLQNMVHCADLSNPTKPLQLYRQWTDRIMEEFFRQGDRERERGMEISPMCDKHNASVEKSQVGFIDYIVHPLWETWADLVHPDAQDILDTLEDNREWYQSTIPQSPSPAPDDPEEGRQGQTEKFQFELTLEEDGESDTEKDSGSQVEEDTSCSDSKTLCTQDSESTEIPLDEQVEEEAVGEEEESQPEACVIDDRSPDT

C=CC(=O)Nc1cc(Nc2nccc(-c3cn(C)c4ccccc34)n2)c(OCC(F)(F)F)nc1N(C)CCN(C)C — activity vs control (CYP3A4; enzyme activity, inhibitor; human, liver microsomes; 3.33 µM, testosterone probe): 112%
CCCN(CC(=O)N(CCC)CC(=O)N(CCC)CC(=O)N(CCC)CC(=O)N(CC(=O)N(CCC)CC(=O)N(CCC)CC(=O)N(CCC)CC(=O)N(CCC)CC(=O)N(CC(N)=O)Cc1cn(CCCNC(=O)CCCOc2cccc(-c3nc4ccc(-c5nc6ccc(N7CCN(C)CC7)cc6[nH]5)cc4[nH]3)c2)nn1)Cc1cn(CCCNC(=O)CCCOc2cccc(-c3nc4ccc(-c5nc6ccc(N7CCN(C)CC7)cc6[nH]5)cc4[nH]3)c2)nn1)C(=O)CNCc1cn(CCCNC(=O)CCCOc2cccc(-c3nc4ccc(-c5nc6ccc(N7CCN(C)CC7)cc6[nH]5)cc4[nH]3)c2)nn1 — ligand- and PI-positive cells (C2C12; flow cytometry; 5 µM, 48 h): 4.1%
[64Cu+2].c1cnc(CNCc2ccc(CN3CCCN4CCNCCCN(CC4)CC3)cc2)nc1 — tissue uptake (CXCR4; NOD/SCID mouse, U87 and U87-stb-CXCR4 xenografts, heart; iv, 240 min, ex vivo): 1.47 ± 0.15 %ID/g
COC(=O)/C=C/C(=O)c1ccc(OC)cc1 — recovery (LC-MS/MS; rat plasma; 40 ng/mL, time not given, 3 freeze-thaw cycles): 95 ± 2.82%
Cn1c(=O)oc2ccc(-c3ccc(CC(C#N)NC(=O)C4CNCCCO4)c(F)c3)cc21 (stereo not drawn) — subjects with TEAE (refers to: macule; human; 60 mg single dose, fasted): 0%
Cc1cc(C(=O)Nc2nc3cccc(C)c3n2[C@H]2CCCCN(C(=O)/C=C/CN(C)C)C2)ccn1 — selectivity ratio (Trypanosoma brucei; HepG2; 4 days; relative to: HepG2 CC50 over T. brucei EC50): > 100 fold
CCCN(CC(=O)N(CCC)CC(=O)N(CCC)CC(=O)N(CCC)CC(=O)N(CC(=O)N(CCC)CC(=O)N(CCC)CC(=O)N(CCC)CC(=O)N(CCC)CC(=O)N(CC(=O)N(CCC)CC(=O)N(CCC)CC(=O)N(CCC)CC(=O)N(CCC)CC(=O)N(CC(N)=O)Cc1cn(CCCNC(=O)CCCOc2cccc(-c3nc4ccc(-c5nc6ccc(N7CCN(C)CC7)cc6[nH]5)cc4[nH]3)c2)nn1)Cc1cn(CCCNC(=O)CCCOc2cccc(-c3nc4ccc(-c5nc6ccc(N7CCN(C)CC7)cc6[nH]5)cc4[nH]3)c2)nn1)Cc1cn(CCCNC(=O)CCCOc2cccc(-c3nc4ccc(-c5nc6ccc(N7CCN(C)CC7)cc6[nH]5)cc4[nH]3)c2)nn1)C(=O)CNCc1cn(CCCNC(=O)CCCOc2cccc(-c3nc4ccc(-c5nc6ccc(N7CCN(C)CC7)cc6[nH]5)cc4[nH]3)c2)nn1 — non-fluorescent cells (C2C12; flow cytometry; 5 µM, 48 h): 8.9%
Clc1cccc(CNCCCNc2nc3ccccc3[nH]2)c1 — selectivity index (Trypanosoma brucei; relative to: MRC-5 SV2 TC50 over EC50): 147
CCC(=O)N(C)c1ccc(Cl)c(Cl)c1 — fold activation (NR1I2 (Homo sapiens, UniProt O75469); reporter gene, agonist; 32 µM; relative to: vehicle): 1.6 fold
CCOc1ccccc1-c1nc(CC(=O)N2CCc3sccc3C2)cs1 — EC50 (Trypanosoma brucei; cell viability, flow cytometry, PI; bloodstream form; 24 h): ~25 µM
[11CH3]Oc1ccc(Cc2cn[nH]c2)nc1-c1cccc([N+](=O)[O-])c1 — decline of brain radioactivity (PDE4D (Homo sapiens, UniProt Q08499); PET; concentration not given, 60 to 120 min): 7%
[64Cu+2].c1ccc(CNCc2ccc(CN3CCCN4CCNCCCN(CC4)CC3)cc2)nc1 — tissue uptake (CXCR4 (human); NOD/SCID mice, U87 xenografts, small intestine; 60 min post-injection): 4.97 ± 0.96 %ID/g
NS(=O)(=O)Nc1ncnc(OCCOc2ncc(Br)cn2)c1-c1ccc(Br)cc1 — contribution to total CLint (Cyp2c11 (Rattus norvegicus, UniProt P08683); substrate, refers to: compound formation; rat, male; pH 7.4, mRNA abundance scaled): 20%
N[C@H](CSC(F)(F)[18F])C(=O)O — tracer uptake (C6 tumour model; male nude, tumour; intravenous, 3.7 MBq, 75 min, tumour-bearing): 3.56 %ID/g
COc1ccc2cc(NC(=O)c3cc(-c4ccncc4)nc4ccccc34)ccc2c1 — kcat/Km (CYP3A4; substrate, refers to: metabolites M1 plus M2; baculosomes): 28700 M⁻¹ s⁻¹
CC(=O)N[C@H](C(=O)N[C@H](C(=O)N[C@@H](CCCNC(=N)N)C(=O)N1Cc2ccccc2C[C@H]1C(=O)N[C@@H](Cc1ccccc1)C(N)=O)C1CCCCC1)C(C)C — cytokine level (human PBMC; Bio-Plex multiplex, refers to: IL-7; 500 µg/mL, 24 h): 0.6 ± 0.5 pg/mL
CCCCCCCCCCCCCCCC[n+]1ccn(Cc2ccccc2)c1C — EC50 (Trypanosoma brucei; cell viability, flow cytometry, PI; bloodstream form; 24 h): 0.34 ± 0.01 µM
O=C(O)CCC(NP(=O)(O)OCCC[C@@H](NC(=O)CC[C@H](NC(=O)CCCCCNC(=O)c1ccc([18F])cc1)C(=O)O)C(=O)O)C(=O)O (stereo partly drawn) — tracer uptake (CWR22Rv1 tumour model; host not given, bone; 1 h, tumour-bearing): 0.193 %ID/g
